Experimental data collected from several papers.
Numbered parts are unrelated; each lists some results of a single study.

Study 1
Target: RNA binding protein fox-1 homolog 2, RRM domain, GST-SBP tag (RBFOX2, Homo sapiens, UniProt O43251-10, residues 100-194)
Method: RNA Bind-n-Seq
Molecule type: RNA
Sample: in vitro
Concentration: 365 nM
Setting: natural RNA segment, single round, ends assumed
Reference: no-protein control
Direction: higher = stronger binding
Target sequence (chain): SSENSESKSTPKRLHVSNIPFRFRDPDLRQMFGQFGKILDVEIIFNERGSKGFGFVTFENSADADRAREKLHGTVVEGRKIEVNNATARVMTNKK
Strand | RBNS enrichment (R)
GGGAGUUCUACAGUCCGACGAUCUUGGACUGGCUUCAUUCUGAAUUUGUGCUAAAAUAAUCUUUCAUAAAGAGACCUCAGUUUAUAGCGUAACAGACUACACAAUGCACUGAUGUUUUCAUAAUGUUUAAGGGUGGAAUUCUCGGGUGCCAA | 0.465
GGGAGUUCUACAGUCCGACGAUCCGCUGCAAAACGCGCAGAUGUGCAGCAGAUUGGAAGGAGACACAGAUGGUCCUUUUUUUCCUGUUUCUGAAAAAGAAAUAAUAAUAUCCAGGUCAACAGAAUGAAAAAUGUGGAAUUCUCGGGUGCCAA | 0.227
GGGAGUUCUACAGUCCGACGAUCGGACGCCUUCCCCGCCCUCGAGGCUUCCCGGCUCUCAGAGGCUCCUUUUUUCUCUCCUGCUCCAGGCCUCAGCUCCAGUCCGCUUCGGUUAUUGACCUCCUGGGUCCUACUGGAAUUCUCGGGUGCCAA | 0.41
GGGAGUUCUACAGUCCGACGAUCUGACCUUUGAAACAAUUCCAGGGGCAUUCUCAAGUAUUUGAUACCUAGGGGUUUAGUAACUCAGACAAAUUAAUCCCUUUGUACUAAUUUUAUGAAACAGAGCUGGGGGUUGGAAUUCUCGGGUGCCAA | 0.366
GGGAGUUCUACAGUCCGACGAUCUGUGAACGUGUGAACGUUAACACUGUAGUUGCUAGAUCUUAAGCUGCUAAUUGUCGAGAGAGAAUUCAGUUGUGUGCUGUCUGGCUGCUGUGCCUUCUCAGCAGCACUUUUGGAAUUCUCGGGUGCCAA | 0.557
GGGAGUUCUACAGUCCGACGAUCAGUCAUGGCAAAUAGAAUUGGGCUGGGGUUUCUCCUUCUUUUCAGUUCAUUGUUUGCCCUGCUAGGAAUUAGAAGACAGACACCAUGUCCCAGGACAGUGUUACUUCUUCUGGAAUUCUCGGGUGCCAA | 0.588
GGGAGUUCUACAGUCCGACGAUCACAUCUAAAAACUUUGCUAGGAGACUAAGAACCUUUGGAGAGAUAGAUAUAAGUACGGUCAAAAAACAAAACUGUGGGACUUACAUUUAUUUUCUAUAGUAAUCUGUUGUUGGAAUUCUCGGGUGCCAA | 0.629
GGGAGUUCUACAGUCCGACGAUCAUACCCUUCUCUCUCCUCUUACUCGUACUGAGACUCCAGUUGUAACUGCUUGUUUUCGCUCACUUGCCUCCCCUUCAGACAUGUAAGUGCAGUCUCCAAAGCUUGACGUUUGGAAUUCUCGGGUGCCAA | 2.19
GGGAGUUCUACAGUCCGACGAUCGGGAGCACGGUUCUGGGAGCUCUGCAAAAUCAGUAGCAAGUGCUGGAAAAGGCACAUGCCGAAGAUACUCAAGAGCUCCCAAGAUUUGCUUGAGGCUAGCCCAGUGAAAAUGGAAUUCUCGGGUGCCAA | 0.531
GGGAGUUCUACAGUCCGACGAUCCUUGCUCAUGUCUACUCCGGUUUUCUCUACCACAUCCUUAGAGCCAUCACCUGGCACGCAGGCGCCUUACAUUCUACGGUAGAACGUGGGGUACUGUGUGUGCACAUAGAUGGAAUUCUCGGGUGCCAA | 0.266
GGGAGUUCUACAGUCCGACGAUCUGCUGGGCUCAUCCUGUCUCCCCUGACAACUGUGACUUCUCCUGGAGAGGCCUGUGCACUGCUGAAGUUCUUGCUGAUGAUUCUAGCUGUAAACCUUUGUUGCCGCCGCAUGGAAUUCUCGGGUGCCAA | 1.39
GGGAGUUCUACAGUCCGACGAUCUAAAGAUGCUUUAUAUGUAGAAAUUGUUUCAAAUCAUACUCUAACCCUUAGUGAGGGCAAAGUGUAGUUGGUAGAAGAAAUUGCUAAAUACCUAUCUAAUGUGCUAUGUUUGGAAUUCUCGGGUGCCAA | 0.776

Study 2
Target: Interferon regulatory factor 3, full length, phosphomimetic (IRF3, Homo sapiens, UniProt Q14653, residues 1-427, S386D/S396D/S398D/S402D/T404D/S405D)
Method: protein-binding microarray
Molecule type: double-stranded DNA, one strand shown
Sample: in vitro
Concentration: 2540 nM top
Setting: 60-bp whole probe
Added: salmon DNA 0.4 mg/ml
Reference: random background probes
Direction: higher = stronger binding
All sequences stand within: GCCTAGCAC … GTCTTGATTCGCTTGACGCTGCTG
Construct (chain): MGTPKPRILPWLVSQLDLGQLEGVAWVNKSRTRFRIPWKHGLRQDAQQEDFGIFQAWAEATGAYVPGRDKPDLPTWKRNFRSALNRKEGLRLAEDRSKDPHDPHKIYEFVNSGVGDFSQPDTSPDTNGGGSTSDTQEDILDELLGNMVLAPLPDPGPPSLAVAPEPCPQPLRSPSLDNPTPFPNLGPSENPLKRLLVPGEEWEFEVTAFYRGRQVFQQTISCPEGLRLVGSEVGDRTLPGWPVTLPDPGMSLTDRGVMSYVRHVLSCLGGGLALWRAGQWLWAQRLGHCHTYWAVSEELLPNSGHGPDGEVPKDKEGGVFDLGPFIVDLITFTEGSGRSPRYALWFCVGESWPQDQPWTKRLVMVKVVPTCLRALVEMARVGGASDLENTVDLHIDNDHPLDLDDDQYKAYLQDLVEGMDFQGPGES
Strand | fitted relative affinity [z-score]
GGGCACGTTGTTTAACTTCTGTGCTAG | -0.894
TTAGGTTTCGTACTGGGTTAGTGCTAG | 3.72
GACGGACTGGGTAACGGGACGTGCTAG | -0.528
GACGGTATCGACTTTCGGCACGTGCTA | 1.2
GGCGGTTTCGGGACTGGGGACGTGCTA | 4.81
TTAGGACGGCTTATCCTTTAGTGCTAG | -0.327
TTTGGACTGGGGTTTCGGTTAGTGCTA | 2.11
GACGGTCTCGACTTTCGGGACGTGCTA | 0.625
GACGATTCCAGTTTCGAGAAGTGCTAG | 2.82
TTAGGATTGGGTTTCGGTTAGTGCTAG | 3.35
TCATCTTTCCATACTGCACTGTGCTAG | 3.26
TTAGAACTTAGTTTCGATTAGTGCTAG | 4.19
TCACTGTTCTTTTCAGTACTGTGCTAG | 1.47
GACGAACTGAGTTTCGACACGTGCTAG | 1.22
GACGGACTGGGTATCGGGAGGTGCTAG | -0.452
GACCATCTCAGACTGGAGACGTGCTAG | 1.31
CCATTTTTCTAGTCCAGACTGTGCTAG | 1.54
TTAGGTTTCGGGTATCTGTTAGTGCTA | 3.97
TTTACTTTCTGAATGCCCTCGTGCTAG | 5
TTAGGTAACGGGTATCGGTTAGTGCTA | 0.491
TTAGGACTGCTACTGCTTGAGTGCTAG | -0.57
TTAGGCCTGGGTCTCGGTTAGTGCTAG | -1.19
GACGGTCGCGGTATCGGGACGTGCTAG | 0.64
TCAATTTTGGTTTTCATACTGTGCTAG | 3.8
GACGGACTGCTACTGGTGACGTGCTAG | -0.503

Study 3
Target: Prothrombin, mature alpha-thrombin (F2, Homo sapiens, UniProt P00734)
Method: aptamer microarray, sandwich
Molecule type: DNA with 2'F-ANA
Sample: in vitro
Concentration: 200 nM
Setting: whole 15-mer aptamer, many near background
Added: Cy3 exosite-II aptamer, 400 nM
Direction: higher = stronger binding
Strand: GGTTGGTGTGGTTGG
Modification | mean fluorescence intensity [a.u.]
2'F-ANA at 1 2 5 7 12 14 | 43.1
2'F-ANA at 1 2 4 5 8 9 10 11 12 13 | 59.4
2'F-ANA at 1 2 3 4 5 6 11 12 15 | 74
2'F-ANA at 5 6 8 11 13 | 58.7
2'F-ANA at 2 5 6 7 9 11 13 15 | 56.5
2'F-ANA at 2 4 6 8 10 11 12 13 14 | 96.4
2'F-ANA at 1 7 8 11 13 15 | 171
2'F-ANA at 2 4 6 8 9 13 15 | 169
2'F-ANA at 3 6 7 9 10 12 13 | 521
2'F-ANA at 1 3 6 11 12 13 15 | 378
2'F-ANA at 3 4 5 7 9 11 13 14 | 48.7
2'F-ANA at 1 3 5 11 12 13 14 | 46.4
2'F-ANA at 1 2 3 7 9 13 14 15 | 69.7
2'F-ANA at 2 3 6 8 9 10 13 14 15 | 288
2'F-ANA at 1 2 3 4 5 9 10 11 13 14 15 | 47.7
2'F-ANA at 1 2 4 5 8 10 11 14 | 48.4
2'F-ANA at 1 3 4 5 6 7 8 9 12 13 14 15 | 48.3
2'F-ANA at 4 5 7 12 14 | 71.6
2'F-ANA at 1 2 3 4 5 7 14 | 46.5
2'F-ANA at 6 7 10 11 12 13 | 184
2'F-ANA at 1 3 5 9 11 12 | 102
2'F-ANA at 3 4 5 6 7 8 10 11 12 13 14 15 | 81.2
2'F-ANA at 1 2 3 4 6 10 | 104
2'F-ANA at 1 3 4 5 8 11 12 | 105
2'F-ANA at 3 4 6 10 11 12 13 14 15 | 165

Study 4
Target: Histone acetyltransferase KAT6A, both winged helices, GST fusion (KAT6A, Homo sapiens, UniProt Q92794, residues 1-181)
Method: protein binding microarray
Molecule type: double-stranded DNA, one strand shown
Sample: in vitro
Concentration: not given
Setting: 8-mer, flanks averaged, mean of 2 arrays, mostly near background
Reference: not given
Direction: higher = stronger binding
Residues (chain): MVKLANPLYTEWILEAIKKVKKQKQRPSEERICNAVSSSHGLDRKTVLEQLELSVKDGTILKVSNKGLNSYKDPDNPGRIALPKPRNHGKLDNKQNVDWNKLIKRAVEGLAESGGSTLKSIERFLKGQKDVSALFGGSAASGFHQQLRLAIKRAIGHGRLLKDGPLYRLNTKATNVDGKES
Strand | E-score
GATTAACC | -0.0312
CGCCAATA | 0.00736
GCGCAGAA | 0.207
AAATTAGG | -0.0397
ATGGATGC | -0.107
CTCGTTGA | 0.00146
ACGCGCGA | 0.372
CTTGCCCC | -0.147
ACTGTCAT | -0.137
GTCCCCAC | -0.0446
AAAGGCCA | -0.18
AGCGCGGA | 0.25
ATGCTCGC | 0.0436
GCCGTCGC | 0.382
GACACGAC | -0.0246
ATCGAAAG | 0.0297
ACGCAGTC | -0.0149

For quick reference, copied from above (study 2):
Strand | fitted relative affinity [z-score]
GGCGGTTTCGGGACTGGGGACGTGCTA | 4.81
TTAGGACGGCTTATCCTTTAGTGCTAG | -0.327
TTTGGACTGGGGTTTCGGTTAGTGCTA | 2.11
GACGGTCTCGACTTTCGGGACGTGCTA | 0.625
GACGATTCCAGTTTCGAGAAGTGCTAG | 2.82
TTAGGATTGGGTTTCGGTTAGTGCTAG | 3.35
